# Measured values pooled from the literature.
# The chains behind the UniProt entries cited, without tags or fusion partners. Residues count along the entry.
# UniProt Q9BZL6, whole entry: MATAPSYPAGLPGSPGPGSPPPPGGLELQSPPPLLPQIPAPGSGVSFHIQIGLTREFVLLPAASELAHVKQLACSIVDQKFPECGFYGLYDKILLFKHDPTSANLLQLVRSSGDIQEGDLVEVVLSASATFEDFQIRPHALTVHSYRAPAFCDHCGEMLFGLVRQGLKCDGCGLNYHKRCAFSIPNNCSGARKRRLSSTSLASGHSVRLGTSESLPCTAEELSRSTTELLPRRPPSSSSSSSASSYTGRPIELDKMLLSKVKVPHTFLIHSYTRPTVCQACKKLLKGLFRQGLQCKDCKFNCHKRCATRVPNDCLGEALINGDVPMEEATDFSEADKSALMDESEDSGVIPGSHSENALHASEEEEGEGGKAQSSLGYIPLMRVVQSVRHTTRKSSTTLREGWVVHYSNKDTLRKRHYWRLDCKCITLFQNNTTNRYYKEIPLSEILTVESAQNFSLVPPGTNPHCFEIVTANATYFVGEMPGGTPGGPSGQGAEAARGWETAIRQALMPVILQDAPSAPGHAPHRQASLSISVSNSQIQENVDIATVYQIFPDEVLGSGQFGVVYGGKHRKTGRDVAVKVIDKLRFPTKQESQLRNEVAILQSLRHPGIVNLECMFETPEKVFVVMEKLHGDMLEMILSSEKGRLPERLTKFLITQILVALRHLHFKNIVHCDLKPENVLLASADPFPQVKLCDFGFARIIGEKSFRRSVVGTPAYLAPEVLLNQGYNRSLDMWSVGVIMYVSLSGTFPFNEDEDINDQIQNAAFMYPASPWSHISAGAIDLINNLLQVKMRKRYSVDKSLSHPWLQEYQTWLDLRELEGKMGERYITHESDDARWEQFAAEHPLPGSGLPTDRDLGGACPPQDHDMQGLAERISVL
# UniProt Q13002, 32-908 limits assumed: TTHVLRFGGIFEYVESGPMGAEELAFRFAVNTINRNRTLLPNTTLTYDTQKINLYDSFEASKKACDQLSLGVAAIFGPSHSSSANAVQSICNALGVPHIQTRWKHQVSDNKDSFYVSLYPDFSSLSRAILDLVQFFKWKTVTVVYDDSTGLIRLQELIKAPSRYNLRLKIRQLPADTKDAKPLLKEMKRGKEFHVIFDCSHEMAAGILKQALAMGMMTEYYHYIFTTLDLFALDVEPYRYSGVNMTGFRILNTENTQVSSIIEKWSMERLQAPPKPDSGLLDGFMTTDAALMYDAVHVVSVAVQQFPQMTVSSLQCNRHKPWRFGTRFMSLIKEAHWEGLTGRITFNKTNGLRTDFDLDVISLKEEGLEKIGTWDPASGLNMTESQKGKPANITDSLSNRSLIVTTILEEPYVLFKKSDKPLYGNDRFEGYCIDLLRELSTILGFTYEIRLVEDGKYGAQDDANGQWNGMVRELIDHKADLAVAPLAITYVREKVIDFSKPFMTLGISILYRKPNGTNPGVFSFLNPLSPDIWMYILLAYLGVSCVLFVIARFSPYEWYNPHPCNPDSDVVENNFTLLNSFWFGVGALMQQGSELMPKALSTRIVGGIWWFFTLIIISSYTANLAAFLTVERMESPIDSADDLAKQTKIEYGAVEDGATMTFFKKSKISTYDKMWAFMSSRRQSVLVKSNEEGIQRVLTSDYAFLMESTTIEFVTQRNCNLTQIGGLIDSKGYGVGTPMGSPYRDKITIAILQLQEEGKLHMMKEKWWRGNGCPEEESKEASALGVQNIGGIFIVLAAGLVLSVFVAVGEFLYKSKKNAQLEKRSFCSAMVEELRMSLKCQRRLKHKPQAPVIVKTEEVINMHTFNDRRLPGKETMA
# UniProt Q16099, 21-956 limits assumed: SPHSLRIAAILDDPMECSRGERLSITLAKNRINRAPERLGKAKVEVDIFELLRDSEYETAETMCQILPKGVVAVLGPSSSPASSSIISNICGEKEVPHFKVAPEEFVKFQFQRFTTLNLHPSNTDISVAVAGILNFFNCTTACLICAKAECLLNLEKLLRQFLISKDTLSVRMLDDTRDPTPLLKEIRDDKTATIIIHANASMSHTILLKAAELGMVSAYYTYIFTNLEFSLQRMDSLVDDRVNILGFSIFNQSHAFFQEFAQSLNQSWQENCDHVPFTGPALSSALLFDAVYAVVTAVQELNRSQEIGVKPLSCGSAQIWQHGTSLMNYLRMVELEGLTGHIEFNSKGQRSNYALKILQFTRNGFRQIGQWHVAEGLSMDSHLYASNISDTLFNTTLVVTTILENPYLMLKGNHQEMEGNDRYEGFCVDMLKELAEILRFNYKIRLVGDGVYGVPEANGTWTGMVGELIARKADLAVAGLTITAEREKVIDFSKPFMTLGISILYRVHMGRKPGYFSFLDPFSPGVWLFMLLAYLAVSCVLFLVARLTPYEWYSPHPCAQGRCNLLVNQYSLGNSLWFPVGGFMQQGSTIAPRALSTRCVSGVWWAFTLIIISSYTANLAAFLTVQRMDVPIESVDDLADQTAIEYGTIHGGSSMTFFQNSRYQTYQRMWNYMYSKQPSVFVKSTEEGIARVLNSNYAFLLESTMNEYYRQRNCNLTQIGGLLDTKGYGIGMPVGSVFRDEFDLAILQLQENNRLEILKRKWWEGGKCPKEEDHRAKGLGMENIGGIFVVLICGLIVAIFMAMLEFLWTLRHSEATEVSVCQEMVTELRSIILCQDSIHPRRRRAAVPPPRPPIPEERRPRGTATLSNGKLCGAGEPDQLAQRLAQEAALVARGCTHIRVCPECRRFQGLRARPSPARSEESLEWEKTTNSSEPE
# UniProt P46098, 24-478 limits assumed: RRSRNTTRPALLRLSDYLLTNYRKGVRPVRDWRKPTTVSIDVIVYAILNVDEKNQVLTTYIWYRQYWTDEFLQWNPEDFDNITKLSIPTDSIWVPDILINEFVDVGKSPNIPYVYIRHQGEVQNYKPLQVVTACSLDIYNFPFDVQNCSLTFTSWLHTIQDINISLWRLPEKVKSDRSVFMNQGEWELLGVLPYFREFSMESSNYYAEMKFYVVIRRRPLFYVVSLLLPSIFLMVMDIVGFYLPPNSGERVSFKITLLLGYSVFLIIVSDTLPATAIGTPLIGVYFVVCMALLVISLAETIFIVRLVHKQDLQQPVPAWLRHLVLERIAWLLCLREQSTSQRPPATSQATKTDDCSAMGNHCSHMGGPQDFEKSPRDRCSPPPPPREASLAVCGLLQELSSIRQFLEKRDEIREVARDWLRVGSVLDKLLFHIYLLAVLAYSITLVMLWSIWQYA
# Protocols differ between the studies behind these lines. Numbers after ± are the reported error.
Molecule,tested on,test,test system,conditions,scale,endpoint,value
CN(CC1CCN(Cc2ccccc2)CC1)C(=O)c1cn(Cc2ccccc2Cl)nn1,,,C57BL/6 mice male,"intraperitoneal, 10 mg/kg",baseline: brain over plasma,brain to plasma AUC ratio,2.8
CC#C/C(=N\OC[C@H]1COCCN1)c1ccc2ncnc(Nc3ccc(OCc4cccc(F)c4)c(Cl)c3)c2c1,"PRKD2 (Homo sapiens, UniProt Q9BZL6)",kinase activity,,10 µM,,inhibition,9.1%
CCCCCCCCCCCCCCCC(=O)NCCCC[C@H](NC(=O)CNC(=O)[C@H](CO)NC(=O)CNC(=O)[C@@H](NC(=O)[C@H](CO)NC(=O)[C@H](CC(=O)O)NC(=O)[C@H](CC(C)C)NC(=O)[C@@H](NC(=O)[C@H](CCCCN)NC(=O)[C@H](CC(N)=O)NC(=O)[C@H](CO)NC(=O)[C@H](CCCNC(=N)N)NC(=O)[C@H](CCCNC(=N)N)NC(=O)[C@@H](NC(=O)[C@H](Cc1c[nH]c2ccccc12)NC(=O)[C@H](CCC(=O)O)NC(=O)[C@H](CCCCN)NC(=O)[C@H](CO)NC(=O)[C@H](CCC(=O)O)NC(=O)[C@H](CCC(=O)O)NC(=O)[C@H](CC(C)C)NC(=O)[C@H](CC(=O)O)NC(=O)[C@H](CO)NC(=O)[C@H](CCCCN)NC(=O)[C@@H](NC(=O)[C@H](CCCCN)NC(=O)[C@H](CC(N)=O)NC(=O)[C@H](CC(C)C)NC(=O)[C@@H](NC(=O)[C@@H](NC(=O)[C@H](CO)NC(=O)[C@@H](NC(=O)[C@H](CC(=O)O)NC(=O)[C@@H](NC(=O)[C@@H]1CCCN1C(=O)[C@H](CC(=O)O)NC(=O)[C@H](CC(C)C)NC(=O)[C@H](C)NC(=O)[C@@H](N)C(C)C)[C@@H](C)CC)[C@@H](C)CC)[C@@H](C)CC)C(C)C)[C@@H](C)CC)[C@@H](C)CC)[C@@H](C)CC)[C@@H](C)CC)C(=O)O,,,PBS,,,solubility,2190 ± 400 µg/mL
CCCSc1nc(N[C@@H]2C[C@H]2c2ccc(F)c(F)c2)c2nnn([C@@H]3C[C@H](OCCO)[C@@H](O)[C@H]3O)c2n1,,,"STEMI patients, plasma","180 mg loading dose, 2 h, added: morphine",,plasma concentration,108 ± 247 ng/mL
CSCC[C@@H](C=O)NC(=O)[C@H](CC(C)C)NC(=O)[C@H](CC(C)C)NC(C)=O,Caco-2,neutral red uptake,,48 h,,CC50,> 100 µM
CCN(CC)C(=O)Oc1ccc(C(=O)Nc2cccc3cc[nH]c23)cc1,"GRIK2/GRIK4 (Homo sapiens, UniProt Q13002+Q16099)","modulator, two-electrode voltage clamp",Xenopus oocytes,"20 µM, added: 100 µM AMPA",baseline: agonist alone,current response,101 ± 1.9%
CC[C@@H](C(N)=O)N1CCCC1=O,,LC-MS/MS,"rat, control, whole blood","oral, 50 mg/kg levetiracetam, added: atropine 5 mg/kg",,terminal half-life,4.18 h
N-methyl-N′-nitro-N-nitrosoguanidine,,,Phenion FT skin model,,,comet assay result,positive
CC(C)C[C@H](NC(=O)[C@@H]1C[C@@H](O)CN1C(=O)[C@H](Cc1ccccc1)NC(=O)[C@H](CO)NC(=O)[C@H](C)NC(=O)[C@H](Cc1ccccc1)NC(=O)[C@@H](NC(=O)[C@H](CCC(=O)O)NC(=O)[C@H](Cc1c[nH]cn1)NC(=O)[C@@H](NC(=O)[C@@H](NC(=O)[C@H](CCC(N)=O)NC(=O)[C@H](C)NC(=O)[C@@H](N)CC(=O)O)[C@@H](C)O)C(C)C)C(C)C)C(=O)N[C@@H](CC(=O)O)C(=O)N[C@@H](CO)C(=O)N[C@@H](CC(=O)O)C(=O)NCC(=O)N[C@H]1CSSC[C@@H]2NC(=O)[C@H](C)NC(=O)[C@@H]3CCCN3C(=O)[C@H](CC(N)=O)NC(=O)[C@H](Cc3c[nH]c4ccccc34)NC(=O)[C@H](CSSC[C@@H](C(N)=O)NC(=O)[C@H](Cc3ccc(O)cc3)NC(=O)[C@H](Cc3c[nH]cn3)NC(=O)[C@H](CCCCN)NC(=O)CNC2=O)NC1=O,,RP-HPLC,mouse serum 25% in water,"50 µM, 24 h, 37 °C",,remaining peptide,8.34 ± 2.29%
C[n+]1ccccc1/C=N/O,,,human adult,"145 µmol/kg, assumed 5 L blood",,maximum blood concentration,~2 mM
C=C[C@@H]1[C@H]2CCC[C@]1(c1cccc(O)c1)CCN2CCc1ccccc1,,,mouse cytosol 2 mg/mL,"1 µM, pH 7.4",,half-life,1.9 h
CC(C)C[C@H](NC(=O)[C@@H]1C[C@@H](O)CN1C(=O)[C@H](Cc1ccccc1)NC(=O)[C@H](CO)NC(=O)[C@H](C)NC(=O)[C@H](Cc1ccccc1)NC(=O)[C@@H](NC(=O)[C@H](CCC(=O)O)NC(=O)[C@H](Cc1c[nH]cn1)NC(=O)[C@@H](NC(=O)[C@@H](NC(=O)[C@H](CCC(N)=O)NC(=O)[C@H](C)NC(=O)[C@@H](N)CC(=O)O)[C@@H](C)O)C(C)C)C(C)C)C(=O)N[C@@H](CC(=O)O)C(=O)N[C@@H](CO)C(=O)N[C@@H](CC(=O)O)C(=O)NCC(=O)N[C@H]1CSSC[C@@H](C(=O)N[C@@H](Cc2c[nH]c3ccccc23)C(=O)N[C@@H](CC(N)=O)C(=O)N2CCC[C@H]2C(=O)N[C@@H](C)C(=O)N[C@H]2CSSC[C@@H](C(N)=O)NC(=O)[C@H](Cc3ccc(O)cc3)NC(=O)[C@H](Cc3c[nH]cn3)NC(=O)[C@H](CCCCN)NC(=O)CNC2=O)NC1=O,,RP-HPLC,mouse serum 25% in water,"50 µM, 24 h, 37 °C",,remaining peptide,4.15 ± 0.29%
COC(=O)[C@@]12OC[C@]34[C@H]([C@@H](O)[C@@H]1O)[C@@]1(C)CC(=O)C(OC(=O)C[C@H](C)N)=C(C)[C@@H]1C[C@H]3OC(=O)[C@H](OC(=O)C=C(C)C)[C@@H]24,,,"NOD/SCID mouse, male","24 days, every other day, combination 5 and 10 mg/kg",,maximum safe dose,≤ 10 mg/kg
O=C(O)c1cc(-c2ccc(-c3cc(CO)on3)cc2)c2ccc(-c3ccc(C(F)(F)F)cc3)cc2c1,,,rat Wistar male,"intravenous, 0.5 mg/kg, 24 h",,MRT(0-t),0.703 h
Cc1cc(N(CCCl)CCCl)ccc1C(=O)O,,,"mouse CD2F1, plasma","iv, 20 mg/kg of bendamustine",,half-life,2.27 h
CCCCCCCCCCCCCCCC(=O)NCCCC[C@H](NC(=O)CNC(=O)[C@H](CO)NC(=O)CNC(=O)[C@@H](NC(=O)[C@@H](NC(=O)[C@@H](NC(=O)[C@H](CO)NC(=O)[C@H](CO)NC(=O)[C@H](CCC(N)=O)NC(=O)[C@H](Cc1c[nH]cn1)NC(=O)[C@H](Cc1c[nH]c2ccccc12)NC(=O)[C@H](CC(N)=O)NC(=O)CNC(=O)[C@@H](NC(=O)[C@H](CO)NC(=O)[C@H](CC(=O)O)NC(=O)[C@H](CC(C)C)NC(=O)[C@@H](NC(=O)[C@H](CCCCN)NC(=O)[C@H](CC(N)=O)NC(=O)[C@H](CO)NC(=O)[C@H](CCCNC(=N)N)NC(=O)[C@H](CCCNC(=N)N)NC(=O)[C@@H](NC(=O)[C@H](Cc1c[nH]c2ccccc12)NC(=O)[C@H](CCC(=O)O)NC(=O)[C@H](CCCCN)NC(=O)[C@H](CO)NC(=O)[C@H](CCC(=O)O)NC(=O)[C@H](CCC(=O)O)NC(=O)[C@H](CC(C)C)NC(=O)[C@H](CC(=O)O)NC(=O)[C@H](CO)NC(=O)[C@H](CCCCN)NC(=O)[C@@H](NC(=O)[C@H](CCCCN)NC(=O)[C@H](CC(N)=O)NC(=O)[C@H](CC(C)C)NC(=O)[C@@H](N)C(C)C)[C@@H](C)CC)[C@@H](C)CC)[C@@H](C)CC)[C@@H](C)CC)[C@@H](C)O)[C@@H](C)O)[C@@H](C)CC)C(=O)O,,,water,,,solubility,1540 ± 130 µg/mL
CCN1CCN(Cc2ccc(NC(=O)c3ccc(C)c(/C=C/c4cnc5[nH]ccc5c4OC)c3)cc2C(F)(F)F)CC1,TFG-NTRK1 fusion,"kinase-CDC37 interaction, cell-based kinome screen",,5 µM,baseline: vehicle,log2 fold change,-0.687
C[C@H](Cc1ccc(O)c(O)c1)[C@@H](C)Cc1ccc(O)c(O)c1,,,human skin,"3% w/v solution, 4 h",,total amount delivered,13.1 ± 0.34 µg
CSc1nc(Cl)cc(Sc2nnc(-c3cc(C(F)(F)F)cc(C(F)(F)F)c3)[nH]2)n1,Pseudomonas aeruginosa,,MDR clinical isolate,added: NAB7061 4 µg/mL,,MIC,5.9 µg/mL
CC[C@H](C)[C@H](NC(=O)[C@H](Cc1ccc(O)cc1)NC(=O)[C@H](CO)NC(=O)[C@H](CCC(=O)O)NC(=O)[C@H](CCC(=O)O)NC(=O)[C@H](CC(C)C)NC(=O)[C@H](CCCCN)NC(=O)[C@H](CCCCN)NC(=O)[C@@H](NC(=O)[C@@H](NC(=O)[C@H](CCC(=O)O)NC(=O)[C@H](CCC(=O)O)NC(=O)[C@H](CC(C)C)NC(=O)[C@H](CCCCN)NC(=O)[C@H](CCCCN)NC(=O)[C@H](CCSC)NC(=O)[C@H](CCC(=O)O)NC(=O)[C@H](Cc1ccc(O)cc1)NC(=O)[C@H](CCC(=O)O)NC(=O)[C@H](CC(C)C)NC(=O)[C@H](CC(=O)O)NC(=O)[C@H](CC(C)C)NC(=O)[C@H](CC(C)C)NC(=O)[C@@H](NC(=O)[C@@H](NC(=O)[C@H](CC(N)=O)NC(=O)[C@@H](NC(=O)[C@H](CCC(N)=O)NC(=O)[C@@H](NC(=O)[C@H](CC(C)C)NC(=O)[C@H](CO)NC(C)=O)[C@@H](C)O)[C@@H](C)CC)[C@@H](C)O)[C@@H](C)O)C(C)C)C(C)C)C(=O)N[C@@H](CC(=O)O)C(=O)N[C@@H](CC(C)C)C(=O)N[C@@H](CCCCN)C(=O)N[C@@H](CCC(=O)O)C(=O)N[C@@H](CC(C)C)C(N)=O,,,Sprague-Dawley rat,"intravenous, 4 mg/kg",,CL,17.3 mL/min/kg
O=C(Nc1ccccc1)c1cc([N+](=O)[O-])ccc1Cl,Salmonella typhimurium,Ames plate incorporation,TA98,"150 µg/plate, without metabolic activation",,revertants,130 ± 13 revertants/plate
CCCCCCCCCCCCCCCC(=O)NCCCC[C@H](NC(=O)CNC(=O)[C@H](CO)NC(=O)CNC(=O)[C@H](CCC(N)=O)NC(=O)[C@H](Cc1c[nH]cn1)NC(=O)[C@H](Cc1c[nH]c2ccccc12)NC(=O)[C@H](CC(N)=O)NC(=O)CNC(=O)[C@@H](NC(=O)[C@H](CO)NC(=O)[C@H](CC(=O)O)NC(=O)[C@H](CC(C)C)NC(=O)[C@@H](NC(=O)[C@H](CCCCN)NC(=O)[C@H](CC(N)=O)NC(=O)[C@H](CO)NC(=O)[C@H](CCCNC(=N)N)NC(=O)[C@H](CCCNC(=N)N)NC(=O)[C@@H](NC(=O)[C@H](Cc1c[nH]c2ccccc12)NC(=O)[C@H](CCC(=O)O)NC(=O)[C@H](CCCCN)NC(=O)[C@H](CO)NC(=O)[C@H](CCC(=O)O)NC(=O)[C@H](CCC(=O)O)NC(=O)[C@H](CC(C)C)NC(=O)[C@H](CC(=O)O)NC(=O)[C@H](CO)NC(=O)[C@H](CCCCN)NC(=O)[C@@H](NC(=O)[C@H](CCCCN)NC(=O)[C@H](CC(N)=O)NC(=O)[C@H](CC(C)C)NC(=O)[C@@H](NC(=O)[C@@H](NC(=O)[C@H](CO)NC(=O)[C@@H](NC(=O)[C@H](CC(=O)O)NC(=O)[C@@H](N)[C@@H](C)CC)[C@@H](C)CC)[C@@H](C)CC)C(C)C)[C@@H](C)CC)[C@@H](C)CC)[C@@H](C)CC)[C@@H](C)CC)C(=O)O,,,water,,,solubility,720 ± 40 µg/mL
CCCN1CCN(c2ccc3c(c2)C2CC3CCN2C(=O)OCc2ccccc2)CC1 (stereo not drawn),"HTR3A (Homo sapiens, UniProt P46098)","binding, radioligand binding",,,,Ki,> 10 µM
C=C(C)[C@@H]1[C@H]2OC(=O)[C@@H]1[C@]1(O)C[C@H]3O[C@]34C(=O)O[C@H]2[C@]14C,,,male NIH-NCI Swiss mice,"intraperitoneal, 2 mg/kg",,lethality,25%

# Some of these lines once more:
Molecule,tested on,test,test system,conditions,scale,endpoint,value
CN(CC1CCN(Cc2ccccc2)CC1)C(=O)c1cn(Cc2ccccc2Cl)nn1,,,C57BL/6 mice male,"intraperitoneal, 10 mg/kg",baseline: brain over plasma,brain to plasma AUC ratio,2.8
CC(C)C[C@H](NC(=O)[C@@H]1C[C@@H](O)CN1C(=O)[C@H](Cc1ccccc1)NC(=O)[C@H](CO)NC(=O)[C@H](C)NC(=O)[C@H](Cc1ccccc1)NC(=O)[C@@H](NC(=O)[C@H](CCC(=O)O)NC(=O)[C@H](Cc1c[nH]cn1)NC(=O)[C@@H](NC(=O)[C@@H](NC(=O)[C@H](CCC(N)=O)NC(=O)[C@H](C)NC(=O)[C@@H](N)CC(=O)O)[C@@H](C)O)C(C)C)C(C)C)C(=O)N[C@@H](CC(=O)O)C(=O)N[C@@H](CO)C(=O)N[C@@H](CC(=O)O)C(=O)NCC(=O)N[C@H]1CSSC[C@@H](C(=O)N[C@@H](Cc2c[nH]c3ccccc23)C(=O)N[C@@H](CC(N)=O)C(=O)N2CCC[C@H]2C(=O)N[C@@H](C)C(=O)N[C@H]2CSSC[C@@H](C(N)=O)NC(=O)[C@H](Cc3ccc(O)cc3)NC(=O)[C@H](Cc3c[nH]cn3)NC(=O)[C@H](CCCCN)NC(=O)CNC2=O)NC1=O,,RP-HPLC,mouse serum 25% in water,"50 µM, 24 h, 37 °C",,remaining peptide,4.15 ± 0.29%
CCN(CC)C(=O)Oc1ccc(C(=O)Nc2cccc3cc[nH]c23)cc1,"GRIK2/GRIK4 (Homo sapiens, UniProt Q13002+Q16099)","modulator, two-electrode voltage clamp",Xenopus oocytes,"20 µM, added: 100 µM AMPA",baseline: agonist alone,current response,101 ± 1.9%
O=C(O)c1cc(-c2ccc(-c3cc(CO)on3)cc2)c2ccc(-c3ccc(C(F)(F)F)cc3)cc2c1,,,rat Wistar male,"intravenous, 0.5 mg/kg, 24 h",,MRT(0-t),0.703 h
